Experimental data pooled from the literature.
Each line is one published result; not all experiments were run side by side. Numbers after ± are the reported error.
Technique: steady-state kinetics
B1: Lxyl-p1-1 A72T/V91S (Lentinula edodes, UniProt G8GLN9); chain YFSGLGLGSERSIFRRDLNSTGDESNSTQWPAPLANGGKSWASAFKKAKSTVTEMTVEELANITSGVIGLCSGVTGAVTRLGIPELCLQDGPIGPRGVHGSSQFPAGLTVAATWDRTLMYARARGMGQEFHDQGVHIALAPVTGGPLGRTPLNGRGWEGTFADPYACGEASYQSVKGLTDAGVATVSKHWIAYEQETSRNLYIEFDGVSQADIQLPISSNVDDLTMHELYMWSFAEAVRAGTNHIMCSYNRINNTHSCNNAKGLNQLLKTELNFQGGVVSDWGGQWDSVLSAENGLDVGMPGEGFLGELGDFWGTTLADLINNGTVSEDLVRDKVVRLLTGYYYLGQDINPPPPFVYNTIGAPTLNATSGYRNVRKPGTAELIKEIGSASVTLLKNTGSLPLKHPQRIAVLGNDATYNVLGPNACGLANSACDIDNLNGTLTTGGGSGSALSPYTITPLEALQKRAIEDNAEIAAVVANSNTTTGAEDAIAALLPDADVTFVFLNRYSEEGADAPDFSLGGDGDNLMDLAVTYSSNVVVVIHTTGVVDIEKWADNPNVTAILVAYLPGQEAGNSLVPVLYGDVAPSGKLPWTWGKSIDDYVPNGVVYTDAYSPQSNFTEGVFIDYRWFDKMGITPRYEFGFGLSYTTFTYSNLIVDHGRWAKDYSSVMETAEPFAEWDGTNSLYDVIFTVFATITNTGNLTGSEVAQLYISIPGDNQPVRQLRGFDKIKDLPVGDSAVVTFPIRRKDVSSWSVVDQLWYVPNGDFLISVGGSSRDLPLNTTWTP
B2: enzyme E217L/L163H/N249W (Thermobifida fusca, UniProt Q47RK4); chain MTDVYILDAVRTPFGRYGGALSGIRPDDLAAHVLRALAERSPGLDPAAVDDVFFGDANGAGEDNRNVARMAALLAGWPTSVPGVTLNRLCGSGMESVIAANRAIAVGDASLAVAGGVESMSRAPWVLPKPAQGFPTGHETLYSTTLGWRMVNPAMPEQWTVSHGESTEQVAATYGISRAEQDAFALRSHERAARAWAEGVFDAEITQIPGAELERDLSIRETSAEKLAALKPAFRPDGTITAGNASPLWDGAAALLIGDAAAAERVGREPLARIVSRGVAAVDPDVFGIGPVQAAEIALRRAGIGWDDLSVVELNEAFAAQSLACLKLWPDLDPEIVNPNGGAIAIGHPLGASGARIVGTLAHELHRRGGGWGLAAICIGVGQGLAVVLHR
B3: enzyme (Drosophila melanogaster, UniProt P82890); chain MVRKVLMICLGNICRSPIAEVVMVDTLEKANVKDVEVDSAAIGGWHVGNRADPRAISTLQKHGLKCTHIVRQIRKQDFSEFDYIFGMDEDNMSELRRLAPKGSKAELLMLGDFGLEKKNRIIEDPYYERGAEGFETAYQQCVVACAAFMKERLQK
B4: nitrilase Y142F (Rhodococcus rhodochrous, UniProt A4LA85); chain MVEYTNTFKVAAVQAQPVWFDAAKTVDKTVSIIAEAARNGCELVAFPEVFIPGYPYHIWVDSPLAGMAKFAVRYHENSLTMDSPHVQRLLDAARDHNIAVVVGISERDGGSLYMTQLIIDADGQLVARRRKLKPTHVERSVFGEGNGSDISVYDMPFARLGALNCWEHFQTLTKYAMYSMHEQVHVASWPGMSLYQPEVPAFGVDAQLTATRMYALEGQTFVVCTTQVVTPEAHEFFCENEEQRKLIGRGGGFARIIGPDGRDLATPLAEDEEGILYADIDLSAITLAKQAADPVGHYSRPDVLSLNFNQRRTTPVNTPLSTIHATHTFVPQFGALDGVRELNGADEQRALPSTHSDETDRATASI
B5: enzyme H189A (Acetivibrio thermocellus, UniProt A3DJ38); chain MKLTIPELSLVVLIGSSGSGKSTFAKKHFKPTEVISSDFCRGLVSDDENDQTVTGAAFDVLHYIVSKRLQLGKLTVVDATNVQESARKPLIEIAKDYHCFPVAVVFNLPEKVCQERNKNRTDRQVEEYVIRKHTQQLKKSIKGLQREGFRYVYILNSPEEVEEVVFERQPLWNNKKDEHGPFDIIGDIAGCYDELKMLLEKLGYLIEEVEGGVGSGKYRVTHPEGRKVLFLGDLVDRGPKITEVLKLVMGMVKSGIALCVPGNHDVKLLRKLNGRDVQITHGLDRTLEQLAKEPQEFIEEVKAFIDGLVSHYVLDDGKLVVAHAGMKEEFQGRGSGKVREFALYGETTGETDEYGLPVRYDWASDYRGKALVVYGHTPQAEVLKVNNTINIDTGCVFGGKLTAYRYPEREIVDVKALKTYYEPAKPFLPKEDMAERFEARTDNDILDINDVLGKKIITTRLMSSITIHEENSIAALEVMSRFAADPHWLIYLPPTMSPCETSKKEGMLEHPIEAFEYFRTRGVGKVVCEQKHMGSRAVVIVCKDSQVAEKRFGVLDGTAGICYTRTGRHFFDDMQLEAELIDRVRKVLDKSGFWGDFNTDWVCLDCELMPWSAKAQKLLEEQYSAVGISGRVVLDEAVKLLKQASLNKTVSFDVSRQTSGKNADINELLQRFTERSEMMQKYVEAYRKYCWPVNSIDDLKLAPFHILATEGKVHSDKNHIWHMDTIAKYCTQDDSLIMATNHILVDVTDAESVDKGIKWWEDLTASGGEGMVVKPYDFIVKNGRELLQPAVKCRGREYLRIIYGPEYTMDENIERLRNRAVGKKRSLALREFSLGMEALERFVRNEPLYRVHECVFGVLALESEPVDPRL
B6: CPB2 (Homo sapiens, UniProt Q96IY4); chain ASASYYEQYHSLNEIYSWIEFITERHPDMLTKIHIGSSFEKYPLYVLKVSGKEQAAKNAIWIDCGIHAREWISPAFCLWFIGHITQFYGIIGQYTNLLRLVDFYVMPVVNVDGYDYSWKKNRMWRKNRSFYANNHCIGTDLNRNFASKHWCEEGASSSSCSETYCGLYPESEPEVKAVASFLRRNINQIKAYISMHSYSQHIVFPYSYTRSKSKDHEELSLVASEAVRAIEKISKNTRYTHGHGSETLYLAPGGGDDWIYDLGIKYSFTIELRDTGTYGFLLPERYIKPTCREAFAAVSKIAWHVIRNV
B7: nitrilase Y142V (Rhodococcus rhodochrous, UniProt A4LA85); chain MVEYTNTFKVAAVQAQPVWFDAAKTVDKTVSIIAEAARNGCELVAFPEVFIPGYPYHIWVDSPLAGMAKFAVRYHENSLTMDSPHVQRLLDAARDHNIAVVVGISERDGGSLYMTQLIIDADGQLVARRRKLKPTHVERSVVGEGNGSDISVYDMPFARLGALNCWEHFQTLTKYAMYSMHEQVHVASWPGMSLYQPEVPAFGVDAQLTATRMYALEGQTFVVCTTQVVTPEAHEFFCENEEQRKLIGRGGGFARIIGPDGRDLATPLAEDEEGILYADIDLSAITLAKQAADPVGHYSRPDVLSLNFNQRRTTPVNTPLSTIHATHTFVPQFGALDGVRELNGADEQRALPSTHSDETDRATASI
B8: protein N123D (Rhodopseudomonas palustris, UniProt Q6N3R9); chain MSNVRVLATDLAFPEGPVVMPDGSVVLVEIRAQQLTRVWPDGRKEVVAKVPGGPNGAALGPDGKMYICNNGGFGWFPSRGTMMPGAPAPHEYIGGSIQRVDLQSGEVETLFDKCGEHPLKGPDDLVFDKHGGLWFTDLGKRRARDMDVGAAYYIKPGMTEITEQVFGTLPLNGIGLSPDEATMYAAETPTGRLWAFDLSGPGEVKPRDVIYRGEKGKPICGLGGYQMFDSLAVEASGNVCVATLVSGCISVIAPDGTLVEQVPTGDRVTTNIAFGGPDLKTAYITLSGKGELIAMDWSRPGLPLNFLNK
B9: sbnA (Staphylococcus aureus, UniProt A6QDA0); chain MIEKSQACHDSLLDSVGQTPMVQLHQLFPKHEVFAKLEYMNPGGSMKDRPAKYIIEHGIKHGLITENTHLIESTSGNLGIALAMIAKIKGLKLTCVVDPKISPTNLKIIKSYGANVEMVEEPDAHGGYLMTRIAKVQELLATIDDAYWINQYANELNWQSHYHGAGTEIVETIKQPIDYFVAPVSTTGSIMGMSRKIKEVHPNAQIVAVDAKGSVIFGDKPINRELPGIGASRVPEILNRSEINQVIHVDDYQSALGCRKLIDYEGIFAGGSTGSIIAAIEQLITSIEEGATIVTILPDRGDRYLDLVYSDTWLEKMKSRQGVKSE
B10: enzyme (Thermotoga maritima, UniProt Q9WZV7); chain VENVTESKELERLKRIDRMKTEFIANISHELRTPLTAIKAYAETIYNSLGELDLSTLKEFLEVIIDQSNHLENLLNELLDFSRLERKSLQINREKVDLCDLVESAVNAIKEFASSHNVNVLFESNVPCPVEAYIDPTRIRQVLLNLLNNGVKYSKKDAPDKYVKVILDEKDGGVLIIVEDNGIGIPDHAKDRIFEQFYRVDSSLTYEVPGTGLGLAITKEIVELHGGRIWVESEVGKGSRFFVWIPKDRAGEDNRQDN
B11: TcC (Trypanosoma cruzi, UniProt Q4DGA3); chain MPREYEFAEKILFTEEEIRTRIMEVAKRIADDYKGKGLRPYVNPLVLISVLKGSFMFTADLCRALSDFNVPVRMEFICVSSYGEGVTSSGQVRMLLDTRHSIEGHHVLIVEDIVDTALTLNYLYHMYFTRRPASLKTVVLLDKREGRRVPFSADYVVANIPNAFVIGYGLDYDDTYRELRDIVVLRPEVYAEREAARQKKQRAIGSADTDRDAKREFHSKY
Sequence of UniProt Q9SQ68 (whole entry, looked up): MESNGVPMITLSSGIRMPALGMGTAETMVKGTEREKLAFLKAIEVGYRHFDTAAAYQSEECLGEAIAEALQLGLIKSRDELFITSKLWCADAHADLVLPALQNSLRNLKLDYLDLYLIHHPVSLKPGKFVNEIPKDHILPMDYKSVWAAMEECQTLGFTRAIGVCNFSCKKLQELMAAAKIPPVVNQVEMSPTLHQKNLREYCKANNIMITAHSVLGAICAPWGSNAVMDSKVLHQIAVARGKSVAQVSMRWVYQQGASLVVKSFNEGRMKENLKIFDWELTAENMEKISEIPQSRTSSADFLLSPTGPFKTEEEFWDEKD

Molecule	substrate	setting	kcat [s⁻¹]
B1 (Lxyl-p1-1 A72T/V91S)	[H][C@]12[C@H](OC(=O)c3ccccc3)[C@]3(O)C[C@H](OC(=O)[C@H](O)[C@@H](NC(=O)c4ccccc4)c4ccccc4)C(C)=C([C@@H](O)C(=O)[C@]1(C)[C@@H](O[C@@H]1OC[C@@H](O)[C@H](O)[C@H]1O)C[C@@]1([H])OC[C@@]21OC(C)=O)C3(C)C	–	3.32 ± 0.17
B2 (enzyme E217L/L163H/N249W)	CC(=O)SCCNC(=O)CCNC(=O)[C@H](O)C(C)(C)COP(=O)(O)OP(=O)(O)OC[C@H]1O[C@@H](n2cnc3c(N)ncnc32)[C@H](O)[C@@H]1OP(=O)(O)O	pH 7.4, 37 °C	0.00433 ± 0.00217
pvdF (Pseudomonas aeruginosa, UniProt Q9I184)	Nc1nc(O)c2cc(CN(C=O)c3ccc(C(=O)N[C@@H](CCC(=O)O)C(=O)O)cc3)ccc2n1	pH 7.4, 25 °C	1.7 ± 0.1
B3 (enzyme)	O=[N+]([O-])c1ccc(OP(=O)(O)O)cc1	pH 6	0.997
B4 (nitrilase Y142F)	N#Cc1ccccn1	pH 7.5, 25 °C	0.000118 ± 1.67e-06
B5 (enzyme H189A)	Nc1ncnc2c1ncn2[C@@H]1O[C@H](CO)[C@H]2OP(=O)(O)O[C@H]21	pH 7.5, 45 °C	1.45 ± 0.1
B6 (CPB2)	C[C@H](NC(=O)[C@H](Cc1ccccc1)NC(=O)[C@H](CCC(N)=O)NC(=O)CNC(=O)[C@@H]1CCCN1C(=O)[C@H](Cc1ccccc1)NC(=O)[C@@H](N)Cc1ccc(O)cc1)C(=O)N[C@@H](Cc1ccccc1)C(=O)N[C@@H](CO)C(=O)N[C@@H](CCCCN)C(=O)O	37 °C	2.7 ± 0.1
B7 (nitrilase Y142V)	Cc1cccc(C#N)c1	pH 7.5, 25 °C	0.000102 ± 1.67e-06
B8 (protein N123D)	O=C1CCc2ccccc2O1	pH 8, NaCl 150 mM, no saturation, together with: CaCl2 1 mM	> 2.4
enzyme (Papaver somniferum, UniProt Q9SQ68)	COc1ccc2c3c1O[C@H]1[C@@H](O)C=C[C@H]4[C@@H](C2)N(C)CC[C@@]341	–	0.81 ± 0.03
wbpB (Pseudomonas aeruginosa, UniProt G3XD23)	CC(=O)N[C@H]1[C@@H](OP(=O)(O)OP(=O)(O)OC[C@H]2O[C@@H](n3ccc(=O)[nH]c3=O)[C@H](O)[C@@H]2O)O[C@H](C(=O)O)[C@@H](O)[C@@H]1O	pH 8.5, 25 °C	5550 ± 70
B9 (sbnA)	N[C@@H](CCC(=O)O)C(=O)O	pH 8, 25 °C, together with: OPS	3.6 ± 0.06
B10 (enzyme)	C#CCSP(=O)(O)OP(=O)(O)OP(=O)(O)OC[C@H]1O[C@@H](n2cnc3c(N)ncnc32)[C@H](O)[C@@H]1O	apparent	2.1 ± 0.6
azu N36H/Q28M/Q34H (Pseudomonas aeruginosa)	O=NO	pH 6.35	0.00633
B11 (TcC)	Oc1ncnc2[nH]ncc12	pH 8.3, 37 °C, apparent, together with: PRPP 1 mM, MgCl2 12 mM	2 ± 0.1

Excerpt of the above:
Molecule	substrate	setting	kcat [s⁻¹]
enzyme (Papaver somniferum, UniProt Q9SQ68)	COc1ccc2c3c1O[C@H]1[C@@H](O)C=C[C@H]4[C@@H](C2)N(C)CC[C@@]341	–	0.81 ± 0.03
